Measurements from different studies.
A part holds a random share of what one study measured. Substitutions count along the parent as printed.

Series 1 — method: DHFR PCA, deep sequencing; matrix: yeast; added: (+)-ABA 0.032 µM; relative to: wild-type fitted maximum; direction: higher = stronger binding
Target: ABI1, truncated, D143A, DHFR fusion (Arabidopsis thaliana)
Notes: methotrexate growth selection, single substitutions
Starting sequence: PYL1, truncated, DHFR fusion (Arabidopsis thaliana); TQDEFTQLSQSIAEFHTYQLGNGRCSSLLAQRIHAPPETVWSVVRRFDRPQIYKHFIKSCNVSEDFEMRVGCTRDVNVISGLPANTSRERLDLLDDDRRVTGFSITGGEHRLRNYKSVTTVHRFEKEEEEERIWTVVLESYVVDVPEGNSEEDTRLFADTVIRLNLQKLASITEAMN; partner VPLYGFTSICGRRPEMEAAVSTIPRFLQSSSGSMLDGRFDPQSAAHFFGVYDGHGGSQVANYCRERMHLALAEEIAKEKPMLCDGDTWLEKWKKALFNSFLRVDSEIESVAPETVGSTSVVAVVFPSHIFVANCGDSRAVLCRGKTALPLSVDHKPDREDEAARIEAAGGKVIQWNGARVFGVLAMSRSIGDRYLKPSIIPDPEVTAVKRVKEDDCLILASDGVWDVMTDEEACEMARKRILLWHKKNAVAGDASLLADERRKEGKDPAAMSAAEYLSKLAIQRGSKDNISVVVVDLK
Change | relative binding score [%]
N177W | 14.8
F103A | -1.08
G71V | 0.0278
P36E | 9.3
Y53A | -0.0871
I79W | 19.5
E109M | 0.366
L8G | 0.0261
Q167S | 11.6
V43K | -1.09
G81W | 4.01
R132T | 42.7
R163C | -4.45
V137Y | 3.4
T17V | -1.13
Y53F | -0.659
S11D | 40
S27Q | 4.18
F157Q | 0.521
C25E | -2.09
S140T | 2.45
V118L | 2.49
T73W | 15.2
T119S | -0.36
L93H | 3.07

Series 2 — method: protein binding microarray; molecule type: double-stranded DNA, one strand shown; matrix: in vitro; tested at: not given; relative to: not given; direction: higher = stronger binding
Target: Histone acetyltransferase KAT6A, winged helix 1, GST fusion (KAT6A, Homo sapiens, UniProt Q92794, residues 1-85)
Notes: 8-mer, flanks averaged, mean of 2 arrays, mostly near background
Construct (chain): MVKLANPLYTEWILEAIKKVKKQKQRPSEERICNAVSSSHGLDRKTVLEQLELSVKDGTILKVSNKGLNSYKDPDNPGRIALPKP
Sequence | E-score
CGGTAGGA | 0.0888
ACGAGCTG | -0.162
ATCGTCCC | -0.107
ACATCAAG | -0.126
CTCACAGA | -0.0568
GTGGATTA | -0.104
ACGGTGAG | 0.161
AGAGCAGA | -0.141
AACAACCC | 0.0315
ATGCGGAG | 0.143
GCCGACAC | 0.259
AGCGGTGG | 0.233
ATGTCTCG | 0.0666
GGCCATGA | -0.0625
CATTCGAG | -0.0981
GGCATAAA | 0.0434
ATCCTCTC | -0.251
ACGAATTG | -0.148
ATGTTGAC | 0.0245
GACGTTGA | -0.127
CACCGCGC | 0.444
CAACTAGA | -0.122
CAGTCACC | 0.00947
ATCCTGGC | -0.139
AAAAAGAA | -0.218

Series 3 — target: NFE2L2, bZIP domain (human); method: DHFR protein complementation; matrix: yeast; relative to: wild-type JUN-FOS pair; direction: higher = stronger binding
Notes: single substitutions, most at no-binding floor
Starting sequence: JUN, bZIP domain (human); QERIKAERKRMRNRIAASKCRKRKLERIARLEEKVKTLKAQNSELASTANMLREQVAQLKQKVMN; partner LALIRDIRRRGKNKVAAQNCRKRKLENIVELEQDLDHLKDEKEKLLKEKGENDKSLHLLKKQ
Change | binding fitness [natural log]
L38W | -1.51
A40F | -1.55
T48W | -1.33
E32T | -1.39
I28D | -1.54
A57T | -1.48
Q58P | -1.58
K36N | -1.65
E44F | -1.52
M51A | -1.37
L45M | -1.37
S43T | -1.34
V56P | -1.52
R30M | -1.36
A46L | -1.46
M51F | -1.46
Q41P | -1.22
Q55D | -1.51
L52E | -1.42
A46W | -1.44
L45D | -1.58

Series 4 — method: RNA Bind-n-Seq; molecule type: RNA; matrix: in vitro; tested at: 365 nM; relative to: no-protein control; direction: higher = stronger binding
Target: RNA binding protein fox-1 homolog 2, RRM domain, GST-SBP tag (RBFOX2, Homo sapiens, UniProt O43251-10, residues 100-194)
Notes: natural RNA segment, single round, ends assumed
Constant ends, left off below: GGGAGUUCUACAGUCCGACGAUC … UGGAAUUCUCGGGUGCCAA
Residues (chain): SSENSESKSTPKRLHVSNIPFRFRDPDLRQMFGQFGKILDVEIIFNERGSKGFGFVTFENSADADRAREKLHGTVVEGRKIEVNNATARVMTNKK
Sequence | RBNS enrichment (R)
ACCAAAAUGUUAUCUCCACUUCCCCCUCACCCGUAGAGGAUCCUGGCCACAGACAGUUUCAAGUAGUGUCAGAUUUUUGUUGCUUGGGCGGCUGUUGGUAGAGUGGGCAG | 0.471
GAAAGCUGCCGUCUCUUUGGCAGUCUGAUGCAGAGCCUGCACUCUGGCACUCGCUGAAGAAUCUGGAAGGUUGCGGUUUGCUCUUCCAGUGUUCGGGGGCCUCUGGCUGC | 0.214
CAUUAUCAAUAACCACCCGGGGACUCUCUGGCUUUCAGAUCCAUCUGCCUGAGACCCCAAGGUCCUCUCCUCCCUAGAGGGGAGGUGGAGCAGCAGUUGACUCCUGGUUC | 0.357
CAAAGAGGGUAUGGUUAGGUACGGGUCUUCCUGCCUCAUUCCUCUUCCUCUUUGUGUAGGUUUCAGCCACAAAACUGUCAUUCACUCUAGGGGACCCCUACUAAAGGGUA | 0.235
ACCUGGUCUGGUCAGGCAAUGCCCUGCGGCUCUGGAAAGCAACUUCAUCCCAGCUGCUGAGGCGAAAUAUAAAACUGAGACUGUAUAUGUUGUGAAUGGGCUUUCAUAAA | 2.17
AGAAGUGUCACACGGAGGCUUCUGUGCCAAAGACUGCCUUGUAGAGGUCUCAUCACCUCACACUUCUUGACUUCACAAAAUUGUGGCCCUGAGAUCAGUACUCCUCUCUU | 0.415
UUAUUUUAAAAGUUCCUGCUGUUCUUUACAAAUCCAGUUCUGAGGUGCAGGCCACCAACAGCAGCGUCUACCAGGUUUUGUGCCUUAACAGUCUCAAGGGCUGAAGCCCA | 0.387
CAGUGGAUACUUAAGACUCAAAGAGCCACCACUACUUUAUUUUUUAUACACUUGGUCUUUCCAUGUAUAUACCGGCCUCUGUUUUUUUUUUUUCCAAUCUCUGGCUCUUC | 0.873
CCUACCCUGGCUCUGCCAUCAGCCUUGAAGGGCCUCGAUGAAGCCUUCUCUGGAACCACUCCAGCCCAGCUCCACCUCAGCCUUGGCCUUCACGCUGUGGAAGCAGCCAA | 0.329
UGGGCCCGAGGCUAUGGAGCCUUGGCUUUCACUUCUGUGACAAACACAUGCCAUUUCCCCAGCCUCAUUUGCUGGUGUCUGUAGGGUCCUCCCAAGGUGAGCUGAGGGCU | 0.52
AUUUUGUGCUUCUGUUAAUGUCUAGCAUUUUAAACAUAGGAUAACAUUGUUUUGGACACUGGAAUAAUAUGAUUUAUUUUCACCUGUAAAAAUGACUUCAUUGUACUUGA | 0.482
GAGAGUGUGCAGAGAGCAAUGAUAGCAAAUAAUGUACGAAUGUUUUUUGCAUUCAAAGGACAUCCACAUCUGUUGGAAGACUUUUAAGUGAGUUUUUGUUCUUAGAUAAC | 0.507

Series 5 — target: CCNA1, cyclin fold, Cln2 fusion (human); method: yeast growth competition, sequencing; matrix: yeast; notes: weak parent motif; relative to: not given; direction: higher = stronger binding
Starting sequence: SCAPER docking peptide (human); SNARRSLNFGGST
Change | normalised enrichment score
N8C | 0.265
N2E | 0.761
F9S | 0.195
A3W | 0.382
G10C | 0.446
N8S | 0.592
T13C | 0.688
L7C | 0.356
S1L | 0.622
R5M | 0.548
R4G | 0.378
N2Y | 0.346
F9G | 0.106
A3I | 0.615
R5Q | 0.315
N8E | 0.654
N8G | 0.317

A few entries again (series 5):
Change | normalised enrichment score
N8S | 0.592
T13C | 0.688
L7C | 0.356
S1L | 0.622
R5M | 0.548
R4G | 0.378
N2Y | 0.346
F9G | 0.106
A3I | 0.615
R5Q | 0.315
N8E | 0.654
